# Results gathered from unrelated publications.
# “And” joins repeats or separate records; there may be more than shown. ± gives the spread as reported.
SMILES,cell line,assay,conditions,EC50
CC1(C)CC([n+]2cc([NH-])on2)CC(C)(C)N1O,human trabecular meshwork cells,"protection from TBHP toxicity, CellTiter","24 h, together with: TBHP 300 µM",0.38 µM
CCOC(=O)c1ccc(NC(=S)Nc2ccc3c(c2)C(C)(C)CC(C)(C)S3)cc1,786-O,"cell growth, MTS",48 h,7.2 ± 0.72 µM
F[P-](F)(F)(F)(F)F.F[P-](F)(F)(F)(F)F.[Ru+2].c1ccc(-c2ccccn2)nc1.c1ccc(-c2ccccn2)nc1.c1csc(-c2cc3cccnc3c3ncccc23)c1,SK-MEL-28,"cell viability, resazurin","16 h drug-to-light interval, together with: red light 625 nm, 100 J/cm2",> 300 µM
CC(C)C(C)C=CC(C)C1CCC2C1(C)CCC1C23C=CC2(CC(OC(=O)CCCCC4SCC5NC(=O)NC54)CCC12C)OO3 (stereo not shown),SUM149,"cell growth or viability, ATP luminescence",,4 µM
CC[C@H](C)[C@H](NC(=O)[C@H](CCCNC(=N)N)NC(=O)[C@H](CCCNC(=N)N)NC(=O)[C@H](CC(C)C)NC(=O)[C@H](CCC(=O)O)NC(=O)[C@H](CCC(N)=O)NC(=O)[C@H](C)NC(=O)[C@@H](NC(=O)[C@H](CNC(=O)CCl)NC(=O)[C@H](CCCNC(=N)N)NC(=O)[C@H](CCCNC(=N)N)NC(=O)[C@@H]1CCCN1C(=O)[C@H](CCCNC(=N)N)NC(=O)[C@H](CCCNC(=N)N)NC(=O)[C@@H]1CCCN1C(=O)[C@H](CCCNC(=N)N)NC(=O)[C@H](CCCNC(=N)N)NC(=O)[C@@H]1CCCN1C(=O)[C@H](CCCNC(=N)N)NC(=O)[C@H](CCCNC(=N)N)NC(=O)[C@@H]1CCCN1C(=O)[C@H](CCCNC(=N)N)NC(=O)[C@H](CCCNC(=N)N)NC(=O)[C@@H]1CCCN1C(C)=O)[C@@H](C)CC)C(=O)NCC(=O)N[C@@H](CC(=O)O)C(=O)N[C@@H](CCC(=O)O)C(=O)N[C@@H](Cc1ccccc1)C(=O)N[C@@H](CC(N)=O)C(=O)N[C@@H](C)C(=O)N[C@@H](Cc1ccc(O)cc1)C(=O)N[C@@H](Cc1ccc(O)cc1)C(=O)N[C@@H](C)C(=O)N[C@@H](CCCNC(=N)N)C(=O)N[C@@H](CCCNC(=N)N)C(N)=O,primary CLL cells,"specific induced apoptosis, flow cytometry","48 h, together with: stroma NK-tert cell coculture",< 5 µM
CSCC[C@H](NC(=O)[C@@H](NC(=O)[C@H](CCSC)NC(=O)[C@H](Cc1ccc(O)cc1)NC(=O)[C@H](CCCCN)NC(=O)[C@@H](N)Cc1c[nH]c2ccccc12)C(C)C)C(N)=O,human neutrophils,"calcium mobilisation, agonist",without probenecid,0.0016 µM
Cc1cccc(O[C@H]2CCC[C@@H](C(C)CNCc3ccncc3)C2)c1 (relative stereo),MC65 Tet-Off,protection from amyloid beta toxicity,,0.0046 ± 0.0006 µM
CCCCCCCCC1(CCCCCCCC)c2cc(-c3cc4[n+]5c(c3)-c3cccc[n+]3[Ir-3]536([c]5c(c(C)cc(C)c5-c5cccc[n+]53)-c3cccc[n+]36)[n+]3ccccc3-4)ccc2-c2ccc(-c3cc4[n+]5c(c3)-c3cccc[n+]3[Ir-3]536([c]5c(c(C)cc(C)c5-c5cccc[n+]53)-c3cccc[n+]36)[n+]3ccccc3-4)cc21.F[P-](F)(F)(F)(F)F.F[P-](F)(F)(F)(F)F.F[P-](F)(F)(F)(F)F.F[P-](F)(F)(F)(F)F,SK-MEL-28,"cell viability, resazurin","16 h before light, visible light 100 J/cm2",0.17 ± 0.01 µM
Cc1cccc(O)c1C(=O)OCC1(O)C(Nc2ccc3c(c2)Cc2ccccc2-3)C(N)C(NC(=O)N(C)C)(C(C)O)C1(C)O (stereo not shown),SK-OV-3,cell growth or viability,,0.145 µM
Cc1cc2c(C(=O)Cc3ccccc3)c(O)c(O)cc2c(O)c1-c1c(C)cc2c(C(=O)Cc3ccccc3)c(O)c(O)cc2c1O,PC3-ML,ATP-lite viability,72 h,4.6 µM
Cc1sc2c(c1C)C(c1ccc(Cl)cc1)=N[C@@H](CC(=O)OC(C)(C)C)c1nnc(C)n1-2,HD-MB03,,,> 2 µM
F[P-](F)(F)(F)(F)F.F[P-](F)(F)(F)(F)F.[Ru+2].c1ccc(-c2ccccn2)nc1.c1ccc(-c2ccccn2)nc1.c1csc(-c2ccc(-c3ccc(-c4cc5cccnc5c5ncccc45)s3)s2)c1,SK-MEL-28,"cell viability, resazurin","16 h drug-to-light interval, together with: red light 625 nm, 100 J/cm2",2.03 µM and ~2 µM
NCCCC[C@H](NC(=O)[C@@H](N)CCCCN)C(=O)NCC(=O)NCC(=O)NCCCCCCCCNC(=O)c1ccc(-c2ccccn2)cc1,Jurkat,"cytotoxicity, MTT","24 h, 37 °C, 10% FBS",2.4 µM

# Repeated from above:
SMILES,cell line,assay,conditions,EC50
CSCC[C@H](NC(=O)[C@@H](NC(=O)[C@H](CCSC)NC(=O)[C@H](Cc1ccc(O)cc1)NC(=O)[C@H](CCCCN)NC(=O)[C@@H](N)Cc1c[nH]c2ccccc12)C(C)C)C(N)=O,human neutrophils,"calcium mobilisation, agonist",without probenecid,0.0016 µM
